Results from different studies.
Every numbered part comes from another study and shows a few of its results, in no order. Changes are numbered by the printed parent chain.

Set 1
Target: RNA binding protein fox-1 homolog 2, RRM domain, GST-SBP tag (RBFOX2, Homo sapiens, UniProt O43251-10, residues 100-194)
Method: RNA Bind-n-Seq
Form: RNA
Matrix: in vitro
Tested at: 365 nM
Notes: natural RNA segment, single round, ends assumed
Reference: no-protein control
Direction: higher = stronger binding
Constant ends, left off below: GGGAGUUCUACAGUCCGACGAUC … UGGAAUUCUCGGGUGCCAA
Residues (chain): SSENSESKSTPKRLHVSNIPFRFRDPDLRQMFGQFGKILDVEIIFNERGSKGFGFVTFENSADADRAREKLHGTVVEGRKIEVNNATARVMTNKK
Strand | RBNS enrichment (R)
UUUUUUCCCAUAACACCCACAUGGAUUUGUGAAGACGUGCUUCUCAGAAGCAAGGACUCAAAAAGCAAAGGUGCACGGCGAGGCCACGAAGCCCACGCCAGCCCGGGGAU | 0.249
GCACCUAUCUGAGCUCUACUCAGUCAUGAGAGGAGGACCAUGCUGCUGUCACUUCGUUGGUCCCUUGAAGAUCUCUGUGACCGGAUCUGCCUCCGUGGCUGGGAGACAUU | 0.385
AAAAAUUCAUAUCCAGUGAAGAUCAACUUCAAGCUUUAGAGAACAUCUAAUAUCUCAUGCAUGCAGUUUUGUUGUAUCAAUUAAAAGGGUUUUGUAUAUUUAUGGUGGGA | 24
CUAUGCCUAGGCAAACUACUAACAUGCAUUGUGAGAAUGCCGUGUAUACCUCACGUACUGUGUACUUUGUACAUAUAUUUUACCUUUUAUACCUAUGUUCGAUUUUGUUU | 1.17
UCAUUGCUUCCUCCCACUUUGUGCUCUGUAAAAGAGCUACAGCUGGCAAGAUGUUUUUUCGGCCCUUCAUCACUGAUUGCAUUUUCCAUACAGAAGAGACAUCAGGGGUG | 0.349
UACUGUAUUGUUUGCUUUCCUUAAGUGCAGUCAUCUCUGAUAGCUUGAGUGAUGGUGUUUCAAAUCCUGUAGUCCUAUGGUGGCUUUCCUUGCCUGUUACUUUAGAGAUC | 0.509
UGGGUGGAUCACCAGAGGUCAGGAGUUCGAGACCAGCCCAGCCAACAUGGCAAAACCCCAUCUCUACUAAAAAUACAAAAAUGAGCUAGGCAUGGUGGCACACGCCUGUA | 0.835
CAGCCAAGGUUUUACAGGCCCUGAUGUCUGUUCUUCUAAAUGGUUUAAGUAAUUGGGACUCUAGCACAUCUUGACCUAGGGUCACUAGAGCUAAGCUUGCUUUGCAGGGC | 0.279
GCUUGUUUCCUGUCAGCCAUCUCUGUCUUUGGGUAUGAAACAUAAGGAUGGCUCCUCCGGUGUCGUGUUCUCUACCUAUAGAGCCAGCUCUGAAUGGAUGUGUUACCAGA | 1.8
CCACAUGUAGCUACUACAGCAAGGCUUCUGUGUACUUGCCGGAAACGAAGGGAGGUCCUGCUCACUCCAUUUCUUUCGUUUGAAGCAGAAGGGAUGUGUAGCCAGGGAAG | 0.555
CCAUAUGAUAUGUUGUACAUUUUAUGGAAAUGUAAUAGAAUCUCACACAUUAUUUUAUAGAAAUAGAGUACAGAAGCAUCACAAGUAUUAAAGUUGGUUUUAGCAAGGAU | 1.24
CCCGGCGCACGUGUGGGCACCACAGAGGACACGUGAGGGGAAUGGUCACCAGUGAGCCAUAUUUAUUAUUUCUAGAGAAAUCACGAACUGCUUUCUGUAAUUGCACUGUG | 0.686

Set 2
Target: Prothrombin, mature alpha-thrombin (F2, Homo sapiens, UniProt P00734)
Method: aptamer microarray, sandwich
Form: DNA with 2'F-ANA
Matrix: in vitro
Tested at: 200 nM
Notes: whole 15-mer aptamer, many near background
With: Cy3 exosite-II aptamer, 400 nM
Direction: higher = stronger binding
Strand: GGTTGGTGTGGTTGG
Modification | mean fluorescence intensity
2'F-ANA at 1 2 3 4 7 | 223 a.u.
2'F-ANA at 1 2 3 4 6 7 10 12 14 15 | 57.3 a.u.
2'F-ANA at 1 2 4 6 8 11 12 13 14 15 | 249 a.u.
2'F-ANA at 1 3 4 6 7 8 13 15 | 168 a.u.
2'F-ANA at 1 3 5 7 8 10 11 14 | 45.7 a.u.
2'F-ANA at 5 6 7 9 10 14 | 50 a.u.
2'F-ANA at 5 9 10 11 14 15 | 47.8 a.u.
2'F-ANA at 2 3 5 6 8 9 11 13 15 | 74.9 a.u.
2'F-ANA at 2 5 7 8 10 15 | 50.4 a.u.
2'F-ANA at 4 6 8 10 11 12 13 15 | 76.1 a.u.
2'F-ANA at 2 3 5 7 8 9 10 11 14 15 | 102 a.u.
2'F-ANA at 6 9 11 12 14 15 | 184 a.u.
2'F-ANA at 3 10 11 13 14 15 | 369 a.u.
2'F-ANA at 4 5 6 11 12 13 15 | 72.4 a.u.
2'F-ANA at 1 2 4 6 7 8 9 10 11 13 15 | 55.5 a.u.
2'F-ANA at 1 3 4 7 8 10 14 15 | 53 a.u.
2'F-ANA at 3 4 5 6 7 8 10 11 13 14 15 | 55.9 a.u.
2'F-ANA at 1 2 3 4 5 7 8 11 12 | 97 a.u.
2'F-ANA at 1 5 6 10 12 13 | 46.8 a.u.
2'F-ANA at 1 3 5 6 7 9 12 14 15 | 54.1 a.u.

Set 3
Target: Centromere-binding protein 1, full length, His-tagged (CBF1, Saccharomyces cerevisiae, UniProt P17106, residues 1-351)
Chain of UniProt P17106 (whole entry, looked up): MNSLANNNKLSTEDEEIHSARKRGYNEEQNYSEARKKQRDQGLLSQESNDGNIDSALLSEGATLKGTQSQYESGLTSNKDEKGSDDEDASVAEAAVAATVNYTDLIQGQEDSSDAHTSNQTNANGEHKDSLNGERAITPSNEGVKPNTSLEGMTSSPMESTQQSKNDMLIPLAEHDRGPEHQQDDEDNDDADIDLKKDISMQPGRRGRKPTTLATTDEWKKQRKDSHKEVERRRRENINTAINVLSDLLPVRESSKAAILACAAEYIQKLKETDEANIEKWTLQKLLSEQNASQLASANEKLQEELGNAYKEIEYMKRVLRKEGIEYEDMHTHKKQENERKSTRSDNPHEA
Method: competition protein-binding microarray
Form: double-stranded DNA, one strand shown
Matrix: in vitro
Tested at: 2 µM
Notes: whole 60-bp probe, lowest competitor level
With: Pho4 competitor, 0.05 µM
Direction: higher = stronger binding
Constant ends, left off below: … GTCTTGATTCGCTTGACGCTGCTG
Strand | fluorescence intensity [a.u.]
ATTCTATTGCAGAATGTTGTGATATTTCCAAGGTCT | 94.6
CGGGGTTAAGTTTGTCACACAACTTGCTTGCAGCAG | 72.2
GTCTTGTCTCATTTTCACGTGAGGTTCCCCACTTCA | 701
CGCAGTCAGCGAGCCCACGTGCTTGTGTTGACTGGA | 866
GGTTTGTTTACAGTACGCGTGGTGAGACCATAAAGG | 102
GGAGGTAAGGACAAACTCGTGGAAGTGGCGATTAAT | 74.1
ACCCGGCATAGAAAGATCGTGATTGTAACGCCCTTG | 67.5
TGAAGTGGGAAGGAAGCATTTAGTTCGTGTAGGCTG | 56
CTTCTGTAAATTTGTTATGTGGGTGGACGCGCCCCG | 88.2
CGGGGTTAAGTTTGTTTTGTGGGTGGCTTGCAGCAG | 93.4
AAATTACTAAGTTGGTTTGTGGGTGACGCCGTATGA | 65.3

Set 4
Target: Sal-like protein 4, full length isoform B (SALL4, Homo sapiens, UniProt Q9UJQ4-2, residues 1-616)
Method: universal PBM
Form: double-stranded DNA, one strand shown
Matrix: in vitro
Tested at: not given
Notes: 8-mer, flanks averaged, mean of replicates
Direction: higher = stronger binding
Residues (chain): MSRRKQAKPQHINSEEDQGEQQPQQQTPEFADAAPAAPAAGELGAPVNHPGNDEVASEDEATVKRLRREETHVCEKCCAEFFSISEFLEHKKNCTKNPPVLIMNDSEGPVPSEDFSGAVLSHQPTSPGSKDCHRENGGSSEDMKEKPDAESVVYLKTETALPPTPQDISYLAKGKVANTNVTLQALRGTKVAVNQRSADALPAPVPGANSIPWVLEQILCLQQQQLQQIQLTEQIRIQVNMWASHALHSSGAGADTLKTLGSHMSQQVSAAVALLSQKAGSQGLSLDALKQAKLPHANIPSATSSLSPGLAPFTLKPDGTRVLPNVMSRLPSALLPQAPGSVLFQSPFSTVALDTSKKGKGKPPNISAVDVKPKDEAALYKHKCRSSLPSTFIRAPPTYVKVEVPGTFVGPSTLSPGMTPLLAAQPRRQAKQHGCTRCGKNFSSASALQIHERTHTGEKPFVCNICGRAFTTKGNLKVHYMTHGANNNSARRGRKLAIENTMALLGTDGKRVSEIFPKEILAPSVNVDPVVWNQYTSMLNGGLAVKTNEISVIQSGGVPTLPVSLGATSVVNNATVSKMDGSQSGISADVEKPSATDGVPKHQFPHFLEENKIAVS
Strand | E-score
ATCTTAAT | 0.231
ATCTGTTC | -0.0139
AGCTGAAC | -0.228
CACACCAG | -0.0497
CAGTCCGC | -0.176
AATCCGAC | 0.0411
ACATTTTG | 0.29
ACGAATTC | 0.163
GAGTTCGA | 0.00516
CCTGTTGA | -0.0334
AAACGTTG | -0.0691
ATTACGAG | 0.198
ATCATTCG | 0.159
CATCATAA | 0.341
CATTCTTC | 0.0953
ATCTCTAC | 0.0126
TACCGACA | -0.0819
ATGCCTCG | 0.0194
CATCACTA | 0.225
CTCATTCC | 0.0421
ATACGCAG | -0.00105
ACGGTAAG | -0.122
GAGATCCA | -0.143
GTACGGCA | -0.104
AAGCCATT | 0.162

Set 5
Target: PABPC1L2, full length, GST fusion (mouse, UniProt A0ABA7IW68)
Method: RNAcompete
Form: RNA
Matrix: in vitro
Tested at: 20 nM
Notes: 7-mer, probes averaged, single round
Reference: mean of 7-mers
Direction: higher = stronger binding
Target sequence (chain): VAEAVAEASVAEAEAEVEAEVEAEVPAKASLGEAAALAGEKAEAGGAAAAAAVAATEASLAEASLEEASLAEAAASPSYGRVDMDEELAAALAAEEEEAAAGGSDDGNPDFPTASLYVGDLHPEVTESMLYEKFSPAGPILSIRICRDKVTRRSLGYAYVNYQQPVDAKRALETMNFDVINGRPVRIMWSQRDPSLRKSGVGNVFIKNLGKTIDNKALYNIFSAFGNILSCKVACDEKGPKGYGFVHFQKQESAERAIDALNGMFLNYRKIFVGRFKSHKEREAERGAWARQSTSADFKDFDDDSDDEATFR
Strand | 7-mer Z-score
CGUCAGG | -0.0301
GGCGGGU | 0.302
GUCGGAA | -0.00289
GAUCGUA | -0.289
GUCUUAA | -0.209
UAUGGAG | -0.0264
UGACUAG | -0.012
CCCCGAC | -0.378
GCAAUAC | 0.00436
UACGGAA | 0.187
AGCCUCC | -0.347
ACGGUUU | -0.291
GGACUAG | 0.191
CGUGGCU | 0.131
UAACGUA | -0.108
GAACGUG | -0.0446
AUGGCUU | -0.0645
GUAUAUU | -0.186
CCCGCAU | -0.316
CCACUAC | -0.246
GGUGUAG | 0.18
UGUACUC | -0.325
UACAUGC | -0.161
CGGAUAG | -0.0373
GUUAAGC | -0.24

Set 6
Target: ABI1, truncated, D143A, DHFR fusion (Arabidopsis thaliana)
Method: DHFR PCA, deep sequencing
Matrix: yeast
Notes: methotrexate growth selection, single substitutions
With: (+)-ABA 4.8 µM
Reference: wild-type fitted maximum
Direction: higher = stronger binding
Starting sequence: PYL1, truncated, DHFR fusion (Arabidopsis thaliana); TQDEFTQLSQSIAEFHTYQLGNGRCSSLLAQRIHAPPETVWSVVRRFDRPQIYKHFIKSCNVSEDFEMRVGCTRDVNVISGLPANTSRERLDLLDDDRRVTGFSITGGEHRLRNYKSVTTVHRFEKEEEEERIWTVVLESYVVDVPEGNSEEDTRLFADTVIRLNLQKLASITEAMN
Change | relative binding score [%]
V43S | -8.38
T101A | 37.8
E89S | 2.22
D159N | 78.4
H34E | 71.4
V136C | 42.2
T6N | 72.7
L28F | 35.4
T86W | 92.5
S27Y | 13.1
S26Y | 46.7
H34F | 63.3
S59R | 40.2
L138H | -35.4
V145A | 7.78
L94H | 50.4
T154V | 81.2

Set 7
Target: CCNA1, cyclin fold, Cln2 fusion (human)
Method: yeast growth competition, sequencing
Matrix: yeast
Notes: weak parent motif
Reference: not given
Direction: higher = stronger binding
Starting sequence: USP37 docking peptide (human); PSAKRSLGFLPQP; partner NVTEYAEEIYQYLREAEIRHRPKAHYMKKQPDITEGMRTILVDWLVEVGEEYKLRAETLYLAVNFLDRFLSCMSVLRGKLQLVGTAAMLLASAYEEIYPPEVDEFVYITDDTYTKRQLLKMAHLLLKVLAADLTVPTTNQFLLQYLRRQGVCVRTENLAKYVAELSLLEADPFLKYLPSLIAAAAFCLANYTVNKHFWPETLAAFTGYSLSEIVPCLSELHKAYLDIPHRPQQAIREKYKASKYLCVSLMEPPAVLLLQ
Change | normalised enrichment score
R5A | 0.158
G8A | 0.229
F9A | -0.186
P11A | -0.295
K4A | 0.246
P1A | -0.156

Further values, each from its own experiment
Molecule | target | test | system | conditions | scale | measurement | result
PhoQ, residues 284 288 289 292 302 303 DDMDFR | PhoP, residues 12 14 15 18 19 IQFRS (Escherichia coli, UniProt P23836) | Sort-seq, measured: YFP reporter | E. coli | PhoQ-PhoP variant library, with: 10 µM Mg2+ | reference: high Mg2+ state, higher = stronger signaling | fold induction | 0.467
